Results of several laboratories.
Each numbered part is a random draw from the data of one study; scales do not carry over between parts.

Series 1
Target: Prothrombin, mature alpha-thrombin (F2, Homo sapiens, UniProt P00734)
Method: aptamer microarray, sandwich
Form: DNA with 2'F-ANA
Sample: in vitro
Tested at: 200 nM
Setting: whole 15-mer aptamer, many near background
Together with: Cy3 exosite-II aptamer, 400 nM
Reading: higher = stronger binding
Measurement: mean fluorescence intensity
Oligonucleotide: GGTTGGTGTGGTTGG
2'F-ANA at 1 3 5 6 8 9 12: 131 a.u.
2'F-ANA at 2 3 4 8 9 11 13 15: 493 a.u.
2'F-ANA at 1 3 4 5 7 10: 45.9 a.u.
2'F-ANA at 1 2 4 6 7 9 10 11 14 15: 51.6 a.u.
2'F-ANA at 2 3 5 6 10 13 14: 127 a.u.
2'F-ANA at 1 4 5 6 7 8 9 10 12 13 15: 46.7 a.u.
2'F-ANA at 2 3 5 6 7 10 12: 57.3 a.u.
2'F-ANA at 2 6 10 12: 197 a.u.
2'F-ANA at 6 12 13: 655 a.u.
2'F-ANA at 2 3 6 8 10 12: 413 a.u.
2'F-ANA at 3 5 6 8 13 15: 84.3 a.u.
2'F-ANA at 6 7 8 9 10 12 13 15: 176 a.u.
2'F-ANA at 3 4 6 7 10 11 15: 227 a.u.
2'F-ANA at 3 4 5 6 8 12 13: 140 a.u.
2'F-ANA at 2 3 8 9: 870 a.u.
2'F-ANA at 1 2 3 5 7 8 10 11 14: 47 a.u.
2'F-ANA at 3 4 9 11 14: 271 a.u.
2'F-ANA at 1 2 3 4 5 6 8 9 13 14: 72.3 a.u.
2'F-ANA at 2 3 4 5 13: 65.2 a.u.
2'F-ANA at 1 2 4 8 9 12: 365 a.u.
2'F-ANA at 1 2 3 5 7 8 9 13 14 15: 49 a.u.
2'F-ANA at 3 4 5 6 9 11 12 13 14: 52.4 a.u.
2'F-ANA at 2 3 6 9 12 15: 1070 a.u.

Series 2
Target: RING finger protein unkempt homolog, zinc fingers 1-6, GST-SBP tag (UNK, Homo sapiens, UniProt Q9C0B0, residues 30-357)
Method: RNA Bind-n-Seq
Form: RNA
Sample: in vitro
Tested at: not given
Setting: RNA with constant flanks, human and mouse sites, ends assumed
Baseline: input RNA pool
Reading: higher = stronger binding
Measurement: bound/input enrichment
Shared flanks, not repeated: GGGAGUUCUACAGUCCGACGAUC … CAACAGAGGAUUGAGCAUCA
AUUCUUGUCAUAGAUCCAAAUAAUGCUGCAGUACUCCAGUCCAGUGGAAAAAAUCUGUUUUACUUGCCACAUGGCUUGAGUAUAGAUAAAGAUGGGAAUUAUUGGGUCACAGACGUGGCU: 0.237 ratio
CAACAUGGAACCCAGCAACAAGACCUUAAUAAGAAAGAAAGAAGAGUAGGAACUCCUCAAAGUACAAAAAAGAAAAAAGAAAGCAGAAGAGCCACUGAAAGCAGAAUACCUGUUUCAAAG: 0.638 ratio
GAGAUGUUAGAAGAUGGCUCUGAGAGAUUCCUCUGCGAAUCUGUUUUUAGCUAUCAAGUGGCAUCCACGCUUAAACAGGUGAAACAUGAUCAGCAAGUUGCUCGGAUGGAAAAACUAGCU: 0.162 ratio
GGCCUCUCGCUGGUGCCCGUGAUCUUUGUUCUGUAUCGUUGGGGGGAGGUGAGAUCAGUCAAUAGGGGUGUUGCUGUUUCCCAUCCCUGCCCCCCCCCCCCAAUUGUUAAUUUUAAGCUG: 0.229 ratio
GUCACCCCAAAGGAAUGGAGAGAUCAGUAGUCGUGCCAGCUGGUACAAUAAUCAAGGAAUUGUUUAAAACCAACUUAUAAGUGAAUGCCAAGUCAAAGAAUCAUGUACUCAUUAUACUAU: 0.31 ratio
UGGGAGAACUUGUUGAAAAGCGCUGCACAUUGCUCCAAAAGGAAAAGAAAAAACAGGAAAGAAAAUGAUUCCAAGGAAAAAUAUGCAAGCCUGUUUCAUUUAUUUGUACCCUAAGCAGCA: 0.172 ratio
AGUAUUAAGUCACAUCAUACUUUAAUUUAGUGAAUAUGCUUUGCUGUUUAUUACUAAAACUGACUCAUUGUUCUUUGAUUAUGCUCAUUAUUCUAGAAACCAAUAACUUAAGAUUACUUU: 2.36 ratio
GGAUGGCACAGCUUCUGGAUCUAUCUGUUGAUGAGUCCGAAGCCUUUCUCUCAAAUCUAGUAGUUAACAAGACCAUCUUUGCUAAAGUAGACAGAUUAGCAGGAAUUAUCAACUUCCAGA: 0.572 ratio
ACUAACAGGCCAUUUAUUUCCCAGAAAAUCCACUUUCCUGACUUUUCUACCAGAGACAUACAUAGGAAUUAUGUUGAUUGUGUGCGAUGGUUAGGCGAUUUGAUACUUUCCAAGUCUUGU: 0.289 ratio
GAGACAACAUUGGCAUGGCUUUGUUUUUUUAAAUUUUUUUUAAAGUUUUUUUUUUUUUUUUUUUUUUUUUUUUUAAGUUUUUUUGUUUUGUUUUGGCGCUUUUGACUCAGGAUUUAAAAA: 3.36 ratio
GAGGCCAUUGAAUUGCCAAUGGAUCCAAAGUUGAACAAAAGACGAGGUUUUGUGUUUAUCACCUUUAAAGAAGAAGAACCCGUGAAGAAGGUUCUGGAGAAAAAGUUCCAUACUGUCAGU: 0.165 ratio

Series 3
Target: Cyclic AMP-dependent transcription factor ATF-1 (ATF1, Homo sapiens, UniProt P18846, residues 1-271, full length assumed)
Method: protein-binding microarray
Form: double-stranded DNA, one strand shown
Sample: in vitro
Tested at: not given
Setting: k-mer, scored over probes, only values ≥0.25
Reading: higher = stronger binding
Measurement: E-score
Residues (chain): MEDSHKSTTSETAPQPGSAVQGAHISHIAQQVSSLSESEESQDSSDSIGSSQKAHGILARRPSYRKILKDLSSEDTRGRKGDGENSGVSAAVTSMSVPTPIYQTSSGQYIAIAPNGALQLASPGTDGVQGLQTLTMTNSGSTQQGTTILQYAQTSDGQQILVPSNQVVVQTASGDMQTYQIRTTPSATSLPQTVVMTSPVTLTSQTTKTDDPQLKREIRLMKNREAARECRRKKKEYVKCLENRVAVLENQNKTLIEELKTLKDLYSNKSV
GTCACAA: 0.348
ACACACG: 0.261
TCCACGA: 0.254
CCATTAC: 0.261
TATTACA: 0.253
ACACGTC: 0.364
ACGCGTC: 0.382
GTCACCA: 0.341
CTGACGA: 0.284
ACGTTGA: 0.315
GTGATGA: 0.269
ACCGTCA: 0.345
ATGTCAC: 0.327
ACGCAAC: 0.349
AACGTGA: 0.291
CTACGTC: 0.441
CACACGC: 0.25
CCGCCCC: 0.28
AGGGGCG: 0.264
ACGTTAC: 0.359
GTGACAC: 0.305

Series 4
Target: UBE2O UBC core domain (UniProt Q9C0C9)
Method: yeast two-hybrid
Sample: yeast
Setting: mostly zero background
Baseline: not given
Reading: higher = stronger interaction
Measurement: lacZ reporter activity
B1: TRIM13 RING domain (UniProt O60858); chain MELLEEDLTCPICCSLFDDPRVLPCSHNFCKKCLEGILEGSVRNSLWRPAPFKCPTCRKETSATGINS
B2: SH3RF2 RING domain (UniProt Q8TEC5); chain DDLTLLDLLECPVCFEKLDVTAKVLPCQHTFCKPCLQRVFKAHKELRCPECRTPVFSNIEAL
B3: TRIM5 RING domain (UniProt Q9C035); chain ILVNVKEEVTCPICLELLTQPLSLDCGHSFCQACLTANHKKSMLDKGESSCPVCRISYQPENIRP
B4: TRIML1 RING domain (UniProt Q8N9V2); chain LMENLREELTCFICLDYFSSPVTTECGHSFCLVCLLRSWEEHNTPLSCPECWRTLEGPHFQS
B5: TRIM5 RING domain (UniProt Q9C035); chain LREVKLSPEGQKVDHCARHGEKLLLFCQEDGKVICWLCERSQEHRGHHTFLTEEVAREYQVKL
Target sequence (chain): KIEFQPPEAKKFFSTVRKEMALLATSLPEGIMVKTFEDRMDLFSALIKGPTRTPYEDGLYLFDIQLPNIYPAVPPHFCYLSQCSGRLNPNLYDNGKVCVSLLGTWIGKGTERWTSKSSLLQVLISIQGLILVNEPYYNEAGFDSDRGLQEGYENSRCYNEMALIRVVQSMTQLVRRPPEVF
B1 (TRIM13 RING domain): 0
DHGAVGQEMCCPICCSEYVKGEVATELPCHHYFHKPCVSIWLQKSGTCPVCRCMFPPPL (PJA1 RING domain (UniProt Q8NG27)): 0
QVDKAVFHMQSVKCLKCQEQKRAVLPCQHAALCELCAEGSECPICQPGRAHTLQS (UNK RING domain (UniProt Q9C0B0)): 0
B2 (SH3RF2 RING domain): 0
FQGDVDEDLICPICSGVLEEPVQAPHCEHAFCNACITQWFSQQQTCPVDRSVVTVAHLRP (RNF41 RING domain (UniProt Q9H4P4)): 0
B3 (TRIM5 RING domain): 0
B4 (TRIML1 RING domain): 0
GAAPGPEAAECLVCSELALLVLFSPCQHRTVCEECARRMKKCIRCQVVVSKKLRPD (MIB2 RING domain (UniProt Q96AX9)): 0
ASLPTSEEDLCPICYAHPISAVFQPCGHKSCKACINQHLMNNKDCFFCKTTIVSVEDWE (RNF123 RING domain (UniProt Q5XPI4)): 0
B5 (TRIM5 RING domain): 0
VEPSEENSKDCVVCQNGTVNWVLLPCRHTCLCDGCVKYFQQCPMCRQFVQESFALC (CGRRF1 RING domain (UniProt Q99675)): 0
MPIRALCTICSDFFDHSRDVAAIHCGHTFHLQCLIQWFETAPSRTCPQCRIQVGKRTIIN (TRAIP RING domain (UniProt Q9BWF2)): 0

Series 5
Organism: Saccharomyces cerevisiae
Observed: binding
Method: yeast competitive growth sequencing
Form: peptide
Strain: cyclin D1-Cln2 strain
Sample: peptide tiling library
Reading: direction not given
Measurement: enrichment score
TSSAQRRLEIPSGGAD: -0.98
KPITLDTTDFQESFVT: 1.67
QDYERRLLRQIVIQNE: -0.925
KSKHEEEEWTDDDLVE: 2.57
LKGRRLVFDN: -0.284
SDSTVTKLDFDLEP: 1.21
ALLRRLQDVANDRGSH: 2.89
RDLFDCDFGDLTPLDF: 2.37
TSPGPVLLHPSPSTTQ: 1.68
CFRCLLFSFSGRSGVE: -2.22
IQKKLRFEDTLEFVGF: -1.04
LAKRALKYTD: -1.32
RVSGLLSWTLSRVLWL: -1.71
ESSTVSEEDYFSSHRD: 1.8
GQLVIPLDELTLDTSF: 3.09
SPREGHMMDALYAQVK: 0.861
VLLKRLQDVVSERANH: 3.49
RSLKLDGLLEEN: -0.478
EPKTLFLGAGDFQF: 2.37
KDDDKAWEYEERDRRS: 1.39

Excerpt of the above (series 1):
2'F-ANA at 1 2 4 6 7 9 10 11 14 15: 51.6 a.u.
2'F-ANA at 2 3 5 6 10 13 14: 127 a.u.
2'F-ANA at 1 4 5 6 7 8 9 10 12 13 15: 46.7 a.u.
2'F-ANA at 2 3 5 6 7 10 12: 57.3 a.u.
2'F-ANA at 2 6 10 12: 197 a.u.
2'F-ANA at 6 12 13: 655 a.u.
2'F-ANA at 2 3 6 8 10 12: 413 a.u.
2'F-ANA at 3 5 6 8 13 15: 84.3 a.u.
2'F-ANA at 6 7 8 9 10 12 13 15: 176 a.u.
2'F-ANA at 3 4 6 7 10 11 15: 227 a.u.
2'F-ANA at 3 4 5 6 8 12 13: 140 a.u.
2'F-ANA at 2 3 8 9: 870 a.u.
2'F-ANA at 1 2 3 5 7 8 10 11 14: 47 a.u.
2'F-ANA at 3 4 9 11 14: 271 a.u.
